Measured values pooled from the literature.
Lines come from different studies, so protocols differ. Values joined by “and” are separate records of one study, mostly repeats; a detail may differ. Numbers after ± are the reported error.

Structure (SMILES) | assay | test system | conditions | scale | quantity | value
CCOC(=O)c1c(NC(=O)CNC(C)C)sc2c1CCCCC2 | – | mice (male), brain | intraperitoneal, 100 mg/kg, 1 h | – | brain concentration | 8020 ng/g
C=CCn1c(=O)c2cnc(Nc3ccc(N4CCN(C)CC4)cc3)nc2n1-c1ccc2c(n1)[C@@](O)(CC)CC2 | – | female NOD/SCID mouse OVCAR-3 xenograft, plasma | oral, 100 mg/kg once daily, :2 | – | AUC(0-24) | 44000 ng·h/mL
CN(C(=O)C(C)(C)c1cc(C(F)(F)F)cc(C(F)(F)F)c1)c1cnc(N2C[C@H]3COCCN3C[C@H]2CO)cc1-c1ccc(F)cc1[14CH3] | measured: total radioactivity | human, plasma | oral, 120 mg | – | %AUC extrapolated | 10.5%
CCCCCN1C[C@H](O)[C@@H](O)[C@H](O)[C@@H]1CO | LC-MS/MS | Hexb-/- mice, brain | 300 mg/kg/day | – | brain concentration | 271 ng/mL
C[C@@H](N)C1CCN(S(=O)(=O)c2cccc3cnccc23)CC1 | – | healthy volunteers | 75 mg, fasted | – | participants with orthostatic hypotension | 0%
CO[C@H]1C[C@@H]2CC[C@@H](C)[C@@](O)(O2)C(=O)C(=O)N2CCCC[C@H]2C(=O)O[C@H]([C@H](C)C[C@@H]2CC[C@@H](OC(=O)NCCOCCOCCOCCOCCOCCOCCOCCOCCC(=O)N3CCc4cc(Cn5nc(-c6ccc7oc(N)nc7c6)c6c(N)ncnc65)ccc4C3)[C@H](OC)C2)C[C@@H](O)[C@H](C)/C=C(\C)[C@@H](O)[C@@H](OC)C(=O)[C@H](C)C[C@H](C)/C=C/C=C/C=C/1C | – | human, plasma | intravenous, 3 mg, cycle 1 | reference: day 15 over day 1 | AUClast ratio | 2.1
COc1ccc2c(c1)CN(C(=O)CCN1CCC(Cc3ccccc3)CC1)CC[S@@+]2[O-] | telemetry | conscious male beagle dogs | intravenous, NG, 2 h | – | PQ interval | 93 ± 12 ms
CC(C)C[C@H](NC(=O)[C@H]1O[C@@H]1C(=O)O)C(=O)NCCCCN=C(N)N | – | PBS | 100 µM, 23 h, pH 7.45, 37 °C, with: cysteine 10 mM | – | cysteine adduct formation | 68%
Cc1cc(-c2nccc3c2ccn3CC(=O)Nc2ccc(-c3cnccn3)cn2)ccn1 | – | human | 20 mg once daily, multiple ascending dose | – | musculoskeletal disorders | 0%
CN(CCC#N)C1CCN(C(=O)Cn2cc(NC(=O)c3cnn4cccnc34)c(-c3cc(Cl)ccc3OC(F)F)n2)CC1 | – | healthy human | 1 mg once daily, day 42 | reference: baseline | LDL cholesterol change | -5.8 mg/dL
C[C@H]1Oc2cc(cnc2N)-c2c(nn(C)c2C#N)CN(C)C(=O)c2ccc(F)cc21 | population PK | patients with normal hepatic function, plasma | oral, 100 mg, single dose, NCI classification | – | CL | 149 mL/min
CCc1c2c(nc3ccc(OC(=O)N4CCC(N5CCCCC5)CC4)cc13)-c1cc3c(c(=O)n1C2)COC(=O)[C@]3(O)CC | – | mouse FVB, colon | intraperitoneal, 50 mg/kg, 24 h | – | tissue concentration | 17100 ± 5050 ng/g
CNC(=O)c1cc(Oc2ccc(NC(=O)Nc3cc(C(C)(C)C)nn3-c3ccc4ncccc4c3)c(F)c2)ccn1 | measured: worst grade 3 | human | oral, dose not given, cycles 1 and 2, Low Cmax subgroup | – | patients with any AE of special interest | 12%
COc1nc(-c2cc(C)c(N[C@@H](C)c3c(F)cc(F)cc3F)nn2)ccc1-n1cnc(C)c1 | – | C57BL/6J mice, male, brain | oral, 10 mg/kg daily for 9 days, 4 h after last dose | – | brain concentration | 1510 ng/g
CC[C@H](C)[C@H](NC(=O)[C@H](Cc1ccccc1)NC(=O)[C@H](CCC(=O)O)NC(=O)[C@H](CCCCNC(=O)COCCOCCNC(=O)COCCOCCNC(=O)CC[C@H](NC(=O)CCCCCCCCCCCCCCCCC(=O)O)C(=O)O)NC(=O)[C@H](C)NC(=O)[C@H](C)NC(=O)[C@H](CCC(N)=O)NC(=O)CNC(=O)[C@H](CCC(=O)O)NC(=O)[C@H](CC(C)C)NC(=O)[C@H](Cc1ccc(O)cc1)NC(=O)[C@H](CO)NC(=O)[C@H](CO)NC(=O)[C@@H](NC(=O)[C@H](CC(=O)O)NC(=O)[C@H](CO)NC(=O)[C@@H](NC(=O)[C@H](Cc1ccccc1)NC(=O)[C@@H](NC(=O)CNC(=O)[C@H](CCC(=O)O)NC(=O)C(C)(C)NC(=O)[C@@H](N)Cc1cnc[nH]1)[C@@H](C)O)[C@@H](C)O)C(C)C)C(=O)N[C@@H](C)C(=O)N[C@@H](Cc1c[nH]c2ccccc12)C(=O)N[C@@H](CC(C)C)C(=O)N[C@H](C(=O)N[C@@H](CCCNC(=N)N)C(=O)NCC(=O)N[C@@H](CCCNC(=N)N)C(=O)NCC(=O)O)C(C)C | 12-lead Holter ECG | healthy humans | subcutaneous, 1.5 mg once weekly, 25 h, steady state | reference: placebo | QTcF change from baseline | -0.3 ms
CCOc1c([C@H](C)n2nc(C)c3c(N)ncnc32)cc(Cl)c(F)c1[C@@H]1CNC(=O)C1 | – | rat plasma | 800 ng/mL, 4 h, 10 °C, autosampler | reference: nominal concentration | stability relative error | 11.4%
Cc1cc(NC2CCN(C(=O)OC3CCN(C(=O)/C=C/CN(C)C)C3)CC2)n2ncc(C(C)C)c2n1 (centres unmarked) | Phase I dose escalation CTCAE v4.0, measured: dermatitis acneiform | patients with advanced solid tumours | dose not given, TIW dosing any grade | – | patients with adverse event | 0%
O=c1ccc2ccc(O)cc2o1 | metabolic stability | rat liver S9 | 2 µM, pH 7.4 | – | CLint scaled | 787 mL/min/kg
Cc1nc2ncnn2c(O)c1NS(=O)(=O)c1ccc(Br)cc1 | – | octanol/buffer | pH 7.4 | – | logD | -0.25
CCOC(=O)N1C[C@@H](c2ccc(C(C)(C)C)cc2)N[C@@H](c2ccc(N3CCCC3)cc2)C1 | shake-flask, 1-octanol/buffer | – | pH 7.4 | – | logD | > 4.7
C=CCN1CC(=O)N2[C@@H](Cc3ccc(O)cc3F)C(=O)N(Cc3cccc(N4CC(N5CCN(CC)CC5)C4)n3)C[C@@H]2N1C(=O)NCc1ccccc1 | – | advanced solid tumour patients | oral, 160 mg twice daily, grade ≥3, dose-escalation | – | treatment-related AST increased | 0%
Cc1cc(Nc2cc3ncccc3c(N[C@@H]3C[C@H]4CC[C@@H](C3)N4CCC#N)n2)n[nH]1 | – | healthy human | oral, 10 mg multiple doses, 14 days | – | subjects with epistaxis | 0%

Structure (SMILES) | assay | test system | conditions | scale | quantity | value
CCOc1c([C@H](C)n2nc(C)c3c(N)ncnc32)cc(Cl)c(F)c1[C@@H]1CNC(=O)C1 | – | patients with B-cell malignancies, plasma | oral, 30 mg, day 15, all cohorts, monotherapy | – | half-life geometric mean | 582 min
Cc1nc2ccc(OCc3ccc(C(F)(F)F)cc3)cc2[nH]1 | – | Balb/c mouse, male, lungs | oral, 10 mg/kg, 4 h | – | tissue concentration | 1740 ± 276 ng/g
CC(C)C[C@H](NC(=O)[C@@H](Cc1c[nH]c2ccccc12)NC(=O)[C@H](Cc1ccc(O)cc1)NC(=O)[C@H](CO)NC(=O)[C@H](Cc1c[nH]c2ccccc12)NC(=O)[C@H](Cc1c[nH]cn1)NC(=O)[C@@H]1CCC(=O)N1)C(=O)N[C@@H](CCCNC(=N)N)C(=O)N1CCC[C@H]1C(=O)NCC(N)=O | – | Chinese CPP children, girls | intramuscular, 22.5 mg, 12 months, day 1, month 6 | – | patients, serious adverse events | 0%
CCN1CCN(Cc2ccc(NC(=O)c3ccc(C)c(NC(=O)c4cncc(-c5cccs5)c4)c3)cc2C(F)(F)F)CC1 | – | C57BL/6 mouse, plasma | intraperitoneal, 10 mg/kg, 24 h, single dose | – | plasma concentration | not detected
NC1(C(=O)N[C@@H](CCO)c2ccc(Cl)cc2)CCN(c2nc[nH]c3nccc2-3)CC1 | – | metastatic CRPC patients | dose not given, any grade, treatment-related, all doses, with: enzalutamide 160 mg daily | – | incidence of Fatigue | 33.3%
CCc1c(-c2ccccc2)c(-c2ccccc2)nn1-c1ccccc1-c1cccc(OCC(=O)O)c1 | – | Sprague-Dawley rat | intravenous | – | Vz observed | 1820 mL/kg and 1640 mL/kg and 1750 mL/kg
CC(C)(C(=O)N1CCOc2c(C#N)cncc2C1)C(F)F | measured: Cardiac disorders | human | oral, 20 mg twice daily, 14 days, multiple ascending dose | – | subjects with adverse event | 0%
c1ccc(CN2CCCN3CCN(Cc4ccccc4)CCCN(CC2)Cc2cccc(n2)C3)cc1 | – | 64Cu complex | 24 h, 70 °C, with: DOTA excess | – | intact complex | 91%
CCc1cc(C(=O)NC)c2nccc(N3CCc4c(cc(Cn5ccnc5)cc4-c4cn(C)nc4C(F)(F)F)C3=O)c2c1 | measured: TBA | Sprague Dawley rat | oral, 50 mg/kg once daily, 7 days | reference: vehicle | change in clinical chemistry or haematology parameter | 180%
C[C@H](N[C@@H](CCc1ccccc1)C(=O)O)C(=O)N1[C@H](C(=O)O)C[C@H]2CCCC[C@@H]21 | – | human plasma | 30 pg/mL, 3 cycles at -20 °C | reference: nominal | freeze-thaw stability | 81.1 ± 6%
Cc1cn(-c2cc(NC(=O)c3ccc(C)c(Nc4nccc(-c5cccnc5)n4)c3)cc(C(F)(F)F)c2)cn1 | population PK model, typical value | human, plasma | oral, fasted state | – | absorption duration (D1) | 2.41 h
CNc1ccc(-c2nc3ccc(O)cc3s2)cc1 [carbon-11 labelled] | ex vivo biodistribution | APP/PS1 mouse, AD model, kidneys | intravenous, 30 min | – | SUV | 6.85 ± 5.77
C[C@@H](O)CCOC(=O)C[C@@H](C)O | – | human | oral drink, dose not given, 240 min post dose, mean | – | diastolic blood pressure | 68 mmHg
Cc1ccc([C@@H]2O[C@H](CO)[C@@H](O)[C@H](O)[C@H]2O)cc1Cc1ccc(-c2ccc(F)cc2)s1 | – | Japanese type 2 diabetes patients | 25 mg, day 15, 24 h urine collection | reference: baseline | urinary magnesium excretion change | 9.29 mg
C[C@@H]1CCO[C@H]2Cn3cc(C(=O)NCc4ccc(F)cc4F)c(=O)c(O)c3C(=O)N12 | – | human, normal renal function, plasma | oral, dose not given, 24 h, steady state, fixed-dose combination | – | Ctau | 1700 ng/mL
Cc1cc(C)c(CNC(=O)c2cc(Cl)c3c(c2C)O[C@@](C)([C@H]2CC[C@H](N(C)C)CC2)O3)c(=O)[nH]1 | measured: Hypercalcemia | human patients | oral, 200 mg once daily, 1 day onset day 14 | – | patients with grade ≥3 TEAE | 4.2%
Clc1ccc(Nc2ncnc3ccc(-c4cccc(N5CCOCC5)c4)cc23)cc1Cl | – | human liver microsomes | – | – | CLint | 60 µL/min/mg
CC(C)Nc1ccnc(Nc2cccc(-c3ccccc3)c2)n1 | – | MDCKII-WT cells | 10 µM, pH 7.4 | reference: Papp B-A over A-B | efflux ratio | 2.33
CCOC(=O)N1C[C@@H](c2ccc(C(C)(C)C)cc2)N[C@@H](c2ccc(F)c(C#N)c2)C1 | shake-flask, 1-octanol/buffer | – | pH 7.4 | – | logD | > 4.7
O=C(Nc1nc2cccc(-c3ccc(CN4CCS(=O)(=O)CC4)cc3)n2n1)C1CC1 | measured: hypertension | human rheumatoid arthritis patients | oral, 75 mg once daily, 4 weeks, regardless of relatedness | – | treatment-emergent adverse events | 0%
CCOC(=O)N1C[C@@H](c2cc(Cl)cc(Cl)c2)N[C@@H](c2ccc(F)c(C#N)c2)C1 | shake-flask, 1-octanol/buffer | – | pH 7.4 | – | logD | > 4.7
C[C@@H](c1ncncc1F)[C@](O)(Cn1cncn1)c1ccc(F)cc1F | measured: Headache | human | oral, 400 mg | – | drug-related TEAE incidence | 0%

Repeated from above:
Structure (SMILES) | assay | test system | conditions | scale | quantity | value
Cc1cc(Nc2cc3ncccc3c(N[C@@H]3C[C@H]4CC[C@@H](C3)N4CCC#N)n2)n[nH]1 | – | healthy human | oral, 10 mg multiple doses, 14 days | – | subjects with epistaxis | 0%
CCOc1c([C@H](C)n2nc(C)c3c(N)ncnc32)cc(Cl)c(F)c1[C@@H]1CNC(=O)C1 | – | patients with B-cell malignancies, plasma | oral, 30 mg, day 15, all cohorts, monotherapy | – | half-life geometric mean | 582 min
Cc1nc2ccc(OCc3ccc(C(F)(F)F)cc3)cc2[nH]1 | – | Balb/c mouse, male, lungs | oral, 10 mg/kg, 4 h | – | tissue concentration | 1740 ± 276 ng/g
CC(C)C[C@H](NC(=O)[C@@H](Cc1c[nH]c2ccccc12)NC(=O)[C@H](Cc1ccc(O)cc1)NC(=O)[C@H](CO)NC(=O)[C@H](Cc1c[nH]c2ccccc12)NC(=O)[C@H](Cc1c[nH]cn1)NC(=O)[C@@H]1CCC(=O)N1)C(=O)N[C@@H](CCCNC(=N)N)C(=O)N1CCC[C@H]1C(=O)NCC(N)=O | – | Chinese CPP children, girls | intramuscular, 22.5 mg, 12 months, day 1, month 6 | – | patients, serious adverse events | 0%
CCN1CCN(Cc2ccc(NC(=O)c3ccc(C)c(NC(=O)c4cncc(-c5cccs5)c4)c3)cc2C(F)(F)F)CC1 | – | C57BL/6 mouse, plasma | intraperitoneal, 10 mg/kg, 24 h, single dose | – | plasma concentration | not detected
NC1(C(=O)N[C@@H](CCO)c2ccc(Cl)cc2)CCN(c2nc[nH]c3nccc2-3)CC1 | – | metastatic CRPC patients | dose not given, any grade, treatment-related, all doses, with: enzalutamide 160 mg daily | – | incidence of Fatigue | 33.3%
CCc1c(-c2ccccc2)c(-c2ccccc2)nn1-c1ccccc1-c1cccc(OCC(=O)O)c1 | – | Sprague-Dawley rat | intravenous | – | Vz observed | 1820 mL/kg and 1640 mL/kg and 1750 mL/kg
